Experimental data gathered from unrelated publications.
Compare with care: the assays were run in different laboratories. Several values in a cell are separate wells, animals, samples, runs or records. ± gives the spread as reported. In brackets after ≈: the same amount, converted by molar mass.
Sequence of UniProt Q9NUW8 (whole entry, looked up): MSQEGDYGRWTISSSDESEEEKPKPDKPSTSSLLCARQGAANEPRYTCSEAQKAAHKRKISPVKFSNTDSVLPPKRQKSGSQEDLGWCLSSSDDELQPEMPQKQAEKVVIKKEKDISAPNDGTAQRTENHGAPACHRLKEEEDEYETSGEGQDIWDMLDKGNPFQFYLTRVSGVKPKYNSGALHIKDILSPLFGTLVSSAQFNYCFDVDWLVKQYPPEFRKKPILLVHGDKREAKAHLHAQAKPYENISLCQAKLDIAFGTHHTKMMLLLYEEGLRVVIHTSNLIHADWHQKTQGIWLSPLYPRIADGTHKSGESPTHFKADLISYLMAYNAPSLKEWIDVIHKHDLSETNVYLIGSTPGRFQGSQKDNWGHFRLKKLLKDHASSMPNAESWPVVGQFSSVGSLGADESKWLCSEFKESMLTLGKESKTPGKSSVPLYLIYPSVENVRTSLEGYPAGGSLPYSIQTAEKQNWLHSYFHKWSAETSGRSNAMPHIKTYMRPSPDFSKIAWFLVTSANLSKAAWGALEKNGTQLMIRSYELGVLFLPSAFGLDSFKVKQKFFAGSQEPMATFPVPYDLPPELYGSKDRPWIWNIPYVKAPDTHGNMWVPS

`C=C(NC(=O)c1csc(-c2nc3c(cc2O)-c2nc(cs2)C(=O)NC(C(C)O)C(=O)NC(=C(C)OC)c2nc(cs2)C(=O)NC2c4nc(cs4)C(=O)NC(COC(=O)c4c5c6c(cccc6n4O)COC(=O)C(OC4CC(C)(O)C(N(C)C)C(C)O4)C2OC5)c2nc-3cs2)n1)C(N)=O` (stereo not shown) gave an AUC(0-last) of 5810 ng·h/mL (Sprague-Dawley rat, female, plasma; intravenous infusion, 18 mg/kg single dose).
`Cc1ccc(CN2C(=O)/C(=N\c3ccc(Cl)cc3Br)c3ccccc32)cc1` gave an MCH of 15.3 ± 0.57 pg (mouse, blood; 200 mg/kg).
`O=C(Nc1cnccc1-c1ccc([18F])cc1)c1ccnc(NC(=O)C2CC2)c1` has an SUV of 1.23 (ex vivo gamma counting; GSK-3β transgenic mice, late-stage, stomach; intravenous, 120 min, mean, P-gp inhibitor pretreatment, with: tariquidar 15 mg/kg iv).
`COc1cccc(OC)c1-c1cc(C(=O)NC2(C(=O)O)C3CC4CC(C3)CC2C4)nn1-c1ccc(C(=O)N(C)CCCN(C)C(=O)[C@H](CCCCNC(=O)[C@H](CC(C)C)NC(=O)C2OC2C(=O)O)NC(=O)CN2CCN(CC(=O)[O-])CCN(CC(=O)[O-])CCN(CC(=O)[O-])CC2)cc1C(C)C.[177Lu+3]` (mixture of isomers) has a tumour-to-spleen ratio of 6.07 (mouse HT-29 xenograft; 24 h, biodistribution; reference: tumour over spleen).
For `[123I]c1ccc2nc(-c3ccc(-n4ccnn4)nc3)cn2c1`, the tracer uptake was 0.154 %ID/g (male Wistar rat, brain; intravenous, 4 MBq, 30 min).
For `CC(C)C[C@H](NC(=O)[C@H](CCCN)NC(=O)CNC(=O)[C@@H](NC(=O)[C@H](C)NC(=O)[C@@H]1CSCSC[C@H](NC(=O)CC[C@H](N)C(=O)O)C(=O)N[C@@H](CC(N)=O)C(=O)N[C@@H]([C@@H](C)O)C(=O)N[C@@H](C)C(=O)N[C@@H]([C@@H](C)O)C(=O)N1)[C@@H](C)O)C(=O)N[C@@H](C)C(=O)N[C@@H](CCC(=O)O)C(=O)N[C@@](C)(Cc1ccccc1)C(=O)N[C@@H](CC(C)C)C(=O)N[C@H](C(=O)N[C@@H](CCCNC(=N)N)C(=O)N[C@@H](CO)C(=O)N[C@@H](CO)C(=O)N[C@@H](CC(N)=O)C(=O)N(C)[C@@H](CC(N)=O)C(=O)N[C@@H](Cc1ccccc1)C(=O)NCC(=O)N1CCC[C@H]1C(=O)N[C@@H](CCCCNC(=O)CC[C@H](NC(=O)CC[C@H](NC(=O)CCCCCCCCCCCCCCCCCCC(=O)O)C(=O)O)C(=O)O)C(=O)N[C@@H](CC(C)C)C(=O)N1CCC[C@H]1C(=O)N1CCC[C@H]1C(=O)N[C@H](C(=O)N[C@@H](CCC(=O)O)C(=O)N[C@H](C(=O)NCC(=O)N[C@@H](CO)C(=O)N[C@@H](CC(N)=O)C(=O)N[C@H](C(=O)N[C@@H](Cc1ccc(O)cc1)C(N)=O)[C@@H](C)O)C(C)C)[C@@H](C)O)C(C)C`, the Tmax was 132 h (human, plasma; subcutaneous, 0.04 mg, single dose, healthy volunteers).
`CCCCCCCC/C=C/CCCCCCCC(=O)[O][Pt-2]1([OH])([Cl])([NH+]=C(CC)N(C)CCNc2c3ccccc3[nH+]c3ccccc23)[NH2+]CCC[NH2+]1.O=[N+]([O-])[O-].O=[N+]([O-])[O-]`: “critical micelle concentration” 1.1 µM (water).
`CCCCN1C(=O)c2cccc3c(NCCCCCCCCN4CCOCC4)ccc(c23)C1=O` gave an emission maximum of 541 nm (methanol).
The AUC(0-inf) of `C/C(N)=N/C(=N\S(=O)(=O)c1ccc(C(F)(F)F)cc1)N1C[C@H](c2ccccc2)C(c2ccc(Cl)cc2)=N1` is reported as 18500 ng·h/mL (female cynomolgus monkey, plasma; intravenous, 2 mg/kg).
For `Cc1cncc(N2CCC(C=NOCc3ccc4nc(-c5ccccc5)c(Nc5ccc(C(=O)O)cc5)n4c3)CC2)n1`, the inhibition was 95.4% (TDP1 (Homo sapiens, UniProt Q9NUW8); enzyme activity, inhibitor; 100 µM, unpurified compound).
`CCCCCCn1ccc(=O)c(O)c1C` has a partition coefficient of 1900 ± 120 (shake-flask, item: iron(III) complex; 1-octanol/Tris buffer; pH 7.4, ligand:iron 10:1).
For `N#C[C@@H]1CC(F)(F)CN1C(=O)CNC(=O)c1ccnc2c(NC(=O)[C@H](CCCCNC(=O)CCOCCOCCOCCOCCOCCOCCNC(=O)CN3CCN(CC(=O)[O-])CCN(CC(=O)[O-])CCN(CC(=O)[O-])CC3)NC(=O)CCCc3ccc(I)cc3)cccc12.[177Lu+3]`, the tissue uptake was 3.1 ± 1.04 %ID/g (mouse, U-87 MG tumour xenograft, spleen; 24 h).
`Cc1nc(N)nc2c1C(=O)N[C@@H](c1ccc(F)cc1-c1cccc(OCC[18F])n1)C2` gave a carcass uptake of 60.9 ± 0.7 %ID (ex vivo biodistribution; C57BL/6 mouse; intravenous, 1 MBq, 30 min, baseline, vehicle).
`CC1(N(CC(=O)O)CC(=O)O)CN(CC(=O)O)CCN(CC(=O)O)C1`: “protonation constant (log)” 6.51 (pH-potentiometry, item: logK2H; 0.15 M NaClO4; 25 °C).
Under “subjects with TEAEs”, `CC(C)(O)c1ncc([S@](N)(=O)=NC(=O)Nc2c3c(cc4c2CCC4)CCC3)s1` is recorded as 13% (item: reproductive, breast disorders; healthy human; oral, 25 mg, 14 days, ECT formulation, twice daily).
`Cc1nc(N)nc2c1C(=O)N[C@@H](c1ccc(F)cc1-c1cccc(O[11CH3])n1)C2` gave an SUV of 1.8 ± 0.3 (ex vivo biodistribution; healthy mice, heart; 60 min post-injection, baseline, vehicle pre-treatment).
For `Cc1[nH]c(=O)c(CNC(=O)c2cc(Cl)c3c(c2C)O[C@@](C)([C@H]2CC[C@H](N(C)C)CC2)O3)c(C)c1O`, the fecal excretion was 1.3% and 11.5% and 3.7% and 5.3% (radiochromatography; human, feces; oral, 200 mg; reference: dose).
`COc1cccc(OC)c1-c1cc(C(=O)NC2(C(=O)O)C3CC4CC(C3)CC2C4)nn1-c1ccc(C(=O)N(C)CCOCCN(C)C(=O)[C@H](CCCCNC(=O)[C@H](CC(C)C)NC(=O)C2OC2C(=O)O)NC(=O)CN2CCN(CC(=O)[O-])CCN(CC(=O)[O-])CCN(CC(=O)[O-])CC2)cc1C(C)C.[177Lu+3]` (mixture of isomers) has a tumour-to-spleen ratio of 1.72 (mouse HT-29 xenograft; 168 h, biodistribution; reference: tumour over spleen).
`C=CC(=O)N1CCCC(n2c(=O)c3ncccc3n(Cc3ccc(Oc4ccccc4)cc3)c2=O)C1` (stereo not shown) has a compound remaining of 0% (metabolic stability; male Sprague-Dawley rat, hepatocytes; 1 µM, 2 h).
For `O=C(Nc1cnccc1-c1ccc([18F])nc1)c1ccnc(NC(=O)C2CC2)c1`, the SUV was 8.11 (FVB/NJ mice, both sexes, liver; intravenous, 50 min, median, P-gp inhibitor pretreatment, with: tariquidar 15 mg/kg iv).
`CC(=O)N([O-])CCCCCNC(=O)CCC(=O)N([O-])CCCCCNC(=O)CCC(=O)N([O-])CCCCCN.[89Zr+4]` has an intact complex of 64.1 ± 0.8% (radio-TLC; aqueous buffer; 7 d, pH 7, 37 °C, 89Zr-labelled complex, with: DTPA 1000-fold excess).
`CN(C)C(=O)c1cccc(N2Cc3cn(Cc4ccc(F)c(Cl)c4)nc3C2)c1` has a half-life of 27 min (metabolic stability; rat, liver microsomes).
The body weight of `O=C1NC(=O)/C(=C/c2ccc3ncnc(N4CCC(F)CC4)c3n2)S1` is reported as 20.3 g and 18.7 g and 16.7 g (NSG mice; dose not given, day 5).
For `FC(F)(F)c1cc2nc(c1)CNCc1cc(C(F)(F)F)cc(n1)CNC2`, “sum of log protonation constants” read 13.7 (potentiometry).
For `COc1cccc(OC)c1-c1cc(C(=O)NC2(C(=O)O)C3CC4CC(C3)CC2C4)nn1-c1ccc(C(=O)N(C)CCCN(C)CCCN(C)C(=O)[C@H](CCCCNC(=O)[C@H](CC(C)C)NC(=O)C2OC2C(=O)O)NC(=O)CN2CCN(CC(=O)[O-])CCN(CC(=O)[O-])CCN(CC(=O)[O-])CC2)cc1C(C)C.[177Lu+3]` (mixture of isomers), the tumour-to-pancreas ratio was 36.6 (mouse HT-29 xenograft; 72 h, biodistribution; reference: tumour over pancreas).
With `Cc1cnc2nc1Nc1cccc(c1)COC/C=C/COCc1cc(ccc1OCCN1CCOCC1)N2` the body weight was 19.3 g and 19.4 g and 18.9 g and 17.4 g and 18.1 g and 19.1 g (BALB/c mice, rhEPO-induced polycythemia; 100 mg/kg, day 4).
With `CC(C)[C@H](NC(=O)[C@H](Cc1c[nH]c2ccccc12)NC(=O)[C@H](CCCNC(=N)N)NC(=O)[C@H](CCCNC(=N)N)NC(=O)[C@@H](NC(=O)[C@@H](NC(=O)[C@H](CCCNC(=N)N)NC(=O)[C@@H](NC(=O)[C@@H](NC(=O)[C@H](CCCNC(=N)N)NC(=O)[C@H](CCCNC(=N)N)NC(=O)[C@@H](NC(=O)[C@H](Cc1c[nH]c2ccccc12)NC(=O)[C@H](CCCNC(=N)N)NC(=O)[C@H](CCCNC(=N)N)NC(=O)[C@@H](NC(=O)[C@H](CCCNC(=N)N)NC(=O)[C@H](CCCNC(=N)N)NC(=O)[C@@H](NC(=O)[C@H](Cc1c[nH]c2ccccc12)NC(=O)[C@H](CCCNC(=N)N)NC(=O)[C@@H](N)CCCNC(=N)N)C(C)C)C(C)C)C(C)C)C(C)C)C(C)C)C(C)C)C(C)C)C(=O)N[C@@H](CCCNC(=N)N)C(=O)N[C@@H](CCCNC(=N)N)C(=O)O` the specific gravity was 1.01 g/mL (dipstick; CD1 mouse, urine; intravenous, 15 mg/kg, 16 h, [14C]-labelled compound).
With `C=CC(=O)Nc1cc(Nc2nccc(-c3cn(C)c4ccccc34)n2)c(OC)cc1N(C)CCNC` the recovery was 96.1% (storage stability; human dried blood spot; 10 d, -80 °C, MQC level).
The solubility of `O=c1c2ccccc2[se]n1CCCCCCn1[se]c2ccccc2c1=O` is reported as 60 ± 3 µg/mL (≈ 125 µM) (shake-flask, RP-HPLC; 10% HP-β-cyclodextrin solution; 24 h, 25 °C).
`Cc1cc(-c2ccc(C(=O)[C@@H]3CCCC[C@H]3C(=O)Nc3cnn4c3C(=O)NCC4)cc2)[nH]n1`: “cumulative radioactivity recovery” 4.96% and 5.59% and 6.58% and 6.28% and 4.92% and 6.77% (human, urine; oral, 200 mg, 0-96 h; reference: dose).
`CCCCN1C(=O)c2cccc3c(NCCCCCN4CCOCC4)ccc(c23)C1=O` — result for “fluorescence quantum yield”: 0.66 (DMF).
For `CC[C@H](C)[C@@H]1NC(=O)[C@H](Cc2ccc(O)cc2)NC(=O)CCCSC[C@@H](C(=O)N(CC(=O)N[C@@H](CC(C)C)C(=O)NCC(N)=O)Cc2ccc(F)cc2)NC(=O)[C@H](CC(N)=O)NC(=O)[C@H](CCC(N)=O)NC1=O`, “adverse drug reactions” read 50% (human; intranasal, 400 µg repeated doses).
With `O=C(c1cccc(N2Cc3cn(Cc4ccc(F)cc4)nc3C2)c1)N1CCCCC1` the half-life was 13 min (metabolic stability; rat, liver microsomes).
`O=C(O)CCCOc1ccc([18F])cc1-c1cc(-c2ccccc2C(F)(F)F)n(-c2ccccc2)n1` gave an absorbed dose of 68.6 µGy/MBq (OLINDA/EXM from mouse data, item: heart wall; human adult).

A few entries again:
The body weight of `O=C1NC(=O)/C(=C/c2ccc3ncnc(N4CCC(F)CC4)c3n2)S1` is reported as 20.3 g and 18.7 g and 16.7 g (NSG mice; dose not given, day 5).
For `COc1cccc(OC)c1-c1cc(C(=O)NC2(C(=O)O)C3CC4CC(C3)CC2C4)nn1-c1ccc(C(=O)N(C)CCCN(C)CCCN(C)C(=O)[C@H](CCCCNC(=O)[C@H](CC(C)C)NC(=O)C2OC2C(=O)O)NC(=O)CN2CCN(CC(=O)[O-])CCN(CC(=O)[O-])CCN(CC(=O)[O-])CC2)cc1C(C)C.[177Lu+3]` (mixture of isomers), the tumour-to-pancreas ratio was 36.6 (mouse HT-29 xenograft; 72 h, biodistribution; reference: tumour over pancreas).
`Cc1nc(N)nc2c1C(=O)N[C@@H](c1ccc(F)cc1-c1cccc(OCC[18F])n1)C2` gave a carcass uptake of 60.9 ± 0.7 %ID (ex vivo biodistribution; C57BL/6 mouse; intravenous, 1 MBq, 30 min, baseline, vehicle).
`COc1cccc(OC)c1-c1cc(C(=O)NC2(C(=O)O)C3CC4CC(C3)CC2C4)nn1-c1ccc(C(=O)N(C)CCOCCN(C)C(=O)[C@H](CCCCNC(=O)[C@H](CC(C)C)NC(=O)C2OC2C(=O)O)NC(=O)CN2CCN(CC(=O)[O-])CCN(CC(=O)[O-])CCN(CC(=O)[O-])CC2)cc1C(C)C.[177Lu+3]` (mixture of isomers) has a tumour-to-spleen ratio of 1.72 (mouse HT-29 xenograft; 168 h, biodistribution; reference: tumour over spleen).
